Experimental data collected from several papers.
A part holds a random share of what one study measured. Positions count from the first letter of the parent shown.

Study 1 — technique: protein-binding microarray; molecule type: double-stranded DNA, one strand shown; medium: in vitro; concentration: 2200 nM top; notes: 60-bp whole probe; with: salmon DNA 0.4 mg/ml; baseline: random background probes; direction: higher = stronger binding; constant ends, left off below: GCCTAGCAC … GTCTTGATTCGCTTGACGCTGCTG
Target: Interferon regulatory factor 7, full length, phosphomimetic (IRF7, Homo sapiens, UniProt Q92985, residues 1-503, S471D/S472D/S475D/S476D/S477D/S483D/S484D/S487D)
Target sequence (chain): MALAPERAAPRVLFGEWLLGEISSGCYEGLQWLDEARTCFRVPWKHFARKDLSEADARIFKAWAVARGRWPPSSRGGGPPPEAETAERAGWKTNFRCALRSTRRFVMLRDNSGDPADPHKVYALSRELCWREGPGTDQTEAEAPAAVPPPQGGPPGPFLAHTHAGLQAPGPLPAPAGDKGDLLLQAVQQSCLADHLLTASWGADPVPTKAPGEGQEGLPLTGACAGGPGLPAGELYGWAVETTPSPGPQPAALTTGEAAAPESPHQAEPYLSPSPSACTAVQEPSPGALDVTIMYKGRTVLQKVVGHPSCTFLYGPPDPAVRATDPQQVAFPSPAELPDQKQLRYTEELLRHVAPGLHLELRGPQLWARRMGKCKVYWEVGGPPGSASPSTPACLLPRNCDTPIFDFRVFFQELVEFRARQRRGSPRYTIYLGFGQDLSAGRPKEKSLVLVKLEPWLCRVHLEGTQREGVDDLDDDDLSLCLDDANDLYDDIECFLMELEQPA
| Sequence | fitted relative affinity [z-score] |
| --- | --- |
| GGCGGTTTCGACACTGGGGACGTGCTA | 2.21 |
| TGCTATACCACTCTTGCTTTGTGCTAG | 1.31 |
| GACGGTATCCCACTGCTGACGTGCTAG | 0.59 |
| GACGGTCTAGGTATCGGGACGTGCTAG | -0.38 |
| TTAGATATCAGTTTCGACTAGTGCTAG | 2.95 |
| CCTATCTTATGATATATATAAGTGCTA | 0.801 |
| GACGATATCAGTTACGAGACGTGCTAG | 0.561 |
| CTTTTTTTCCGAGTGAGTAAGTGCTAG | 1.87 |
| TTAGGTATCGGGACTGAGTTAGTGCTA | -0.176 |
| GACGATTTCAGTCTCGGGACGTGCTAG | 0.834 |
| GACGGACTGCTTTTCCCGACGTGCTAG | 0.686 |
| AGACATGACACCACTCCTGAGTGCTAG | 0.363 |
| TCACCAATGGTCTTTCCAACTGTGCTA | 0.935 |
| TTAGATTTCGTGTTTCGATTAGTGCTA | 5.28 |
| GACGCTATCGGGTTTCGAGACGTGCTA | 1.64 |
| GACGGTAGCCTTTTCCTGACGTGCTAG | 0.5 |
| CTTTTTTTGGTAATAGTGAAGTGCTAG | 0.91 |
| TGGTCTTTCCACTTTCTTTTGTGCTAG | 3.37 |
| GACGATATCGGAACTGGAGACGTGCTA | -0.0574 |

Study 2 — target: CCND1, cyclin fold, Cln2 fusion (human); technique: yeast growth competition, sequencing; medium: yeast; notes: strong parent motif; baseline: not given; direction: higher = stronger binding
Starting sequence: RBL1 docking peptide (human); GSAKRRLFGEDPP; partner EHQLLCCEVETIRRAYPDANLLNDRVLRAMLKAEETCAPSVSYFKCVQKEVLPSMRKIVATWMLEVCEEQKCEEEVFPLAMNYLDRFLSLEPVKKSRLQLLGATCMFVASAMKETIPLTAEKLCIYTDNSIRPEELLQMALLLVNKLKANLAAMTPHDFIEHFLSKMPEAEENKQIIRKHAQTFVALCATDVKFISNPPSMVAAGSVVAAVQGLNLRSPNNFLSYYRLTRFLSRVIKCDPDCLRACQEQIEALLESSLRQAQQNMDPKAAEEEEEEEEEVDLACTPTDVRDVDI
| Change | normalised enrichment score |
| --- | --- |
| GSAKRVLFGEDPP [R6V] | 1.76 |
| GSAKRRLFGEDPC [P13C] | 1.46 |
| GSAKRRLIGEDPP [F8I] | 0.459 |
| GSAKARAFGEDPP [R5A L7A] | -0.0113 |
| GSAKLRLFGEDPP [R5L] | 0.927 |
| GSAKRRMFGEDPP [L7M] | 0.508 |
| GVAKRRLFGEDPP [S2V] | 0.574 |
| GSSKRRLFGEDPP [A3S] | 1.08 |
| GSAKRRLFGELPP [D11L] | 0.988 |
| GSAKRRLFGVDPP [E10V] | 0.563 |
| GSAKERLFGEDPP [R5E] | 0.667 |
| GSAKRRIFGEDPP [L7I] | 1.78 |
| GSAKRRLFGCDPP [E10C] | 0.839 |
| GSAKRRLWGEDPP [F8W] | 0.351 |
| GSAKRRLFGYDPP [E10Y] | 0.553 |
| GSAKARLFGEDPP [R5A] | 0.512 |

Study 3 — technique: protein binding microarray; molecule type: double-stranded DNA, one strand shown; medium: in vitro; concentration: not given; baseline: not given; direction: higher = stronger binding
Target: Histone acetyltransferase KAT6A, winged helix 1, GST fusion (KAT6A, Homo sapiens, UniProt Q92794, residues 1-85)
Notes: 8-mer, flanks averaged, mean of 2 arrays, mostly near background
Residues (chain): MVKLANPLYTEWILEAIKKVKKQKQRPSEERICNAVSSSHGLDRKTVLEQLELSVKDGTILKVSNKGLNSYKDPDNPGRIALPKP
| Sequence | E-score |
| --- | --- |
| CACTACTG | -0.055 |
| ATGGGAGC | -0.0309 |
| ACCCCTCG | -0.094 |
| AACCCATT | -0.126 |
| AGAAATGG | -0.082 |
| GTGATGCA | -0.146 |
| AGTAATGG | -0.105 |
| ATCGCATG | -0.017 |
| AAGGTTAG | -0.133 |
| ACATACGC | 0.237 |
| CATAGTAA | -0.169 |
| AGCGAGCA | -0.0389 |
| CGAGCGAC | 0.0589 |
| AACAGTGT | -0.15 |
| TAGGAAGA | -0.265 |
| GCTACCCC | -0.0537 |
| GGTGGGAA | -0.136 |
| TCAATAAA | -0.159 |
| GAGTAATC | -0.116 |

Study 4 — technique: RNA Bind-n-Seq; molecule type: RNA; medium: in vitro; concentration: 365 nM; baseline: no-protein control; direction: higher = stronger binding
Target: RNA binding protein fox-1 homolog 2, RRM domain, GST-SBP tag (RBFOX2, Homo sapiens, UniProt O43251-10, residues 100-194)
Notes: natural RNA segment, single round, ends assumed
Construct (chain): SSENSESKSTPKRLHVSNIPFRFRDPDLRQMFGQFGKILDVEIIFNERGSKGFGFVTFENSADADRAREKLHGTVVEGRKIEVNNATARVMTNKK
| Sequence | RBNS enrichment (R) |
| --- | --- |
| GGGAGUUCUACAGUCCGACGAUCCUCUGUCUCAUCCAUCAUCAUGUGUGUCCACGACUGUCUCCAUGGCCCUGCAAAAGGACUCUCAGGACCAAAGCUUUCAUGUAAACUGUGCACCAAGCAGGAAAUGAAAAUGGAAUUCUCGGGUGCCAA | 0.436 |
| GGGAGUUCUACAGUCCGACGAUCUAAAGCCCAUCCAGAUUAGUUUAGCUCUGACCACUAAUGGCAGGUCUUAAGGACCUUGUGAUUAGUCAAUCAACAAACCACAACACUUCCUAGGACCUGUUGUACUCCGUUGGAAUUCUCGGGUGCCAA | 0.241 |
| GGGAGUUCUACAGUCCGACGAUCUUGUGGGCCUUGUUCCCUUUGAAGUGCUAAAUUCAUUUUGCCUAAUAAUACUACUUCUCUUUCCUUAUCUGAAUCUCUAACACCUCCAUUAGAAAAGUAGAGUUUGGAGAUGGAAUUCUCGGGUGCCAA | 0.639 |
| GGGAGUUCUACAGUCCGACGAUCAGCUUCUUUCCCAGAAUAAACUUAUCAUGCAUUUGCUUACCUAAAAUUUAAGUUUCAAAUUAGUUCUCUAUAUGAGAUACUUAAUCGAGCAUAUAUAUUUAUAUUCAUUGUGGAAUUCUCGGGUGCCAA | 0.472 |
| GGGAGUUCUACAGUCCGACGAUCGGGGCCUUUCUUUAACUGCCUUCCUGGCUUAGCUCAGAUGGCAGAUGAGAGUGUAGUCAAGGGCCUGGGCACAGGAGGGAGAGCUGCAGAGUGUCCUGCCUGCCUUGGCUUGGAAUUCUCGGGUGCCAA | 0.407 |
| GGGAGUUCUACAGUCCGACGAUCGUUCUAAAUUUAAAACAAAUAAUAAUUGGAACAAAUAAAGGUUCUUGUACCCAGAGUGAUUCUACAUGGGAAAAACAAACCAGCUUUUUUCAGAGAGUGACCGAAUAGGAUGGAAUUCUCGGGUGCCAA | 0.337 |
| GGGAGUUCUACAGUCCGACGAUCGCUGGCAUGCUUGCAGCACAUGUCCAUUAAAGGUCAUUUUGUUUAUUUGUUGGCAUGCUUACAACACAUGUCCAUUAAAGUUCAUUUGGUCCUUUUAUUUUCAUUGUUUUUGGAAUUCUCGGGUGCCAA | 12.5 |
| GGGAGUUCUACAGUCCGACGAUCCAGGAAGACCUGGCCCAGGCUGCUGUGGGCAGAGGCCCUCAUCAAGCCAAGUGGAAUGGAGCCGGCCAAGCUGAGCCUGACUUUUUUCAAUAAAACAUUGUGUACUUCUGUGGAAUUCUCGGGUGCCAA | 0.352 |
| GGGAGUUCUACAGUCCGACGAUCGUGUUUUGUUUUACUGUACUAAGAACUUGUCCUUUCUCCUUGAAUCAAAGUAGGACAUGCAUCAUCCUCCUAAUUUUAAAUGUUGGCUCUGAUUUUAAAGUGGUGCAUUUUGGAAUUCUCGGGUGCCAA | 0.648 |
| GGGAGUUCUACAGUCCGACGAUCUGUUUUUUUCUAGCCUACCUAUAGUUGUUGGCCUUUUUGCAUAUAACUCUCGGGUAAUAUUUUGAAGCAUGCUGACCAUCCAGGCAUAUAGUAUUUUCAAGAAAUGACUGUGGAAUUCUCGGGUGCCAA | 0.597 |
| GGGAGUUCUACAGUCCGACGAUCGGGAAUGGAAUACAGAGCCCAAGCAAUGAGGAGCAGGCAAAGCCAGCCUCCCAGCAGGACAACAAAUGGAGGUCCAUCUAUCUUUGUCACCAAGCUGAGGUGUCUGAAGCUGGAAUUCUCGGGUGCCAA | 0.462 |
| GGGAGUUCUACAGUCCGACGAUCCAGUCGAUAAGGCUGAGUCGGGGAGGCUCAGACCAUUGAGGCUUGAAAUUGCAAAACUCUUGUAGCUCAUUCUGAAAUCUUUCCCCUGUAGUCCAGAACUGGGGAGGCCAUGGAAUUCUCGGGUGCCAA | 0.418 |

Study 5 — technique: DHFR PCA, deep sequencing; medium: yeast; with: (+)-ABA 710 µM; baseline: wild-type fitted maximum; direction: higher = stronger binding
Target: ABI1, truncated, D143A, DHFR fusion (Arabidopsis thaliana)
Notes: methotrexate growth selection, single substitutions
Starting sequence: PYL1, truncated, DHFR fusion (Arabidopsis thaliana); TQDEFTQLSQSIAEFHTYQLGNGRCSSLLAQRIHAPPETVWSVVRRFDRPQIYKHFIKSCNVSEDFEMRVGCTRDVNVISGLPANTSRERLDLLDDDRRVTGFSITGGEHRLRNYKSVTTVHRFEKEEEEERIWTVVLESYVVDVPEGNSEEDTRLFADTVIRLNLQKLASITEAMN
| Change | relative binding score |
| --- | --- |
| E127F | 103% |
| E64L | 100% |
| Q51I | 79.8% |
| I105H | 5.4% |
| A13G | 103% |
| T160F | 103% |
| F15N | 92.9% |
| L156I | 102% |

Study 6 — target: CREM, bZIP domain (human); technique: DHFR protein complementation; medium: yeast; baseline: wild-type JUN-FOS pair; direction: higher = stronger binding
Notes: single substitutions, most at no-binding floor
Starting sequence: JUN, bZIP domain (human); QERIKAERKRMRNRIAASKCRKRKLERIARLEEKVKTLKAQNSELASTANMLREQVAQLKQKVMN; partner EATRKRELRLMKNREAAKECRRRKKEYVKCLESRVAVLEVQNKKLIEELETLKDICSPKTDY
| Change | binding fitness [natural log] |
| --- | --- |
| A57S | -1.4 |
| V35L | -1.27 |
| L38A | -1.56 |
| E44I | -1.34 |
| E33R | -1.45 |
| M51Q | -1.48 |
| Q41G | -1.56 |
| M51R | -1.44 |
| A57M | -1.22 |
| E32S | -1.56 |
| Q55S | -1.39 |
| T48V | -1.53 |
| T48I | -1.28 |
| R30G | -1.47 |
| E32T | -1.48 |
